Assay results of several laboratories.
A part holds a random share of what one study measured. Substitutions count along the parent as printed.

Block 1
Target: CCNE2, cyclin fold, Cln2 fusion (human)
Technique: yeast growth competition, sequencing
Sample: yeast
Setting: strong parent motif
Relative to: not given
Reading: higher = stronger binding
Starting sequence: SCAPER docking peptide (human); SNARRSLNFGGST; partner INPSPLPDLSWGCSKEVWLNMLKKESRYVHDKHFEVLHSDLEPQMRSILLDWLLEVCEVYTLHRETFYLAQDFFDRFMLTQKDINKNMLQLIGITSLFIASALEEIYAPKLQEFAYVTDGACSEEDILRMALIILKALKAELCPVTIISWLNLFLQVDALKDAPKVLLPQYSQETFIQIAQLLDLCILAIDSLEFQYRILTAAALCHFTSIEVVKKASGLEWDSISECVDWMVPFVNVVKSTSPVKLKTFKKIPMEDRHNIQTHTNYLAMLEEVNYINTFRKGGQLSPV
`G10H` — result for “normalised enrichment score”: 1.2.
`S6M` — result for “normalised enrichment score”: 3.38.
`F9W` — result for “normalised enrichment score”: 1.88.
`A3Y`: “normalised enrichment score” 1.09.
Under “normalised enrichment score”, `N2K` is recorded as 1.3.
`S1N`: “normalised enrichment score” 1.34.
`R4V`: “normalised enrichment score” 1.23.
Under “normalised enrichment score”, `S12I` is recorded as 1.57.
`N8K`: “normalised enrichment score” 1.44.
For `F9Y`, “normalised enrichment score” read -0.0011.
`R4Y`: “normalised enrichment score” 0.277.
`R5G` — result for “normalised enrichment score”: -0.842.
Under “normalised enrichment score”, `A3V` is recorded as 1.48.
`N8T`: “normalised enrichment score” 1.05.
`S6K`: “normalised enrichment score” 4.33.
`S6R` — result for “normalised enrichment score”: 5.31.
Under “normalised enrichment score”, `S12E` is recorded as 1.45.
`T13V` — result for “normalised enrichment score”: 1.72.
Under “normalised enrichment score”, `R4A` is recorded as -0.112.
`R5H` — result for “normalised enrichment score”: 0.195.
`S1R` — result for “normalised enrichment score”: 0.177.
`G11L`: “normalised enrichment score” 0.188.
`F9D`: “normalised enrichment score” 0.646.
For `F9A`, “normalised enrichment score” read 0.193.
For `F9S`, “normalised enrichment score” read 0.183.

Block 2
Target: Sal-like protein 4, full length isoform A (SALL4, Homo sapiens, UniProt Q9UJQ4, residues 1-1053)
Sequence of UniProt Q9UJQ4 (whole entry, looked up): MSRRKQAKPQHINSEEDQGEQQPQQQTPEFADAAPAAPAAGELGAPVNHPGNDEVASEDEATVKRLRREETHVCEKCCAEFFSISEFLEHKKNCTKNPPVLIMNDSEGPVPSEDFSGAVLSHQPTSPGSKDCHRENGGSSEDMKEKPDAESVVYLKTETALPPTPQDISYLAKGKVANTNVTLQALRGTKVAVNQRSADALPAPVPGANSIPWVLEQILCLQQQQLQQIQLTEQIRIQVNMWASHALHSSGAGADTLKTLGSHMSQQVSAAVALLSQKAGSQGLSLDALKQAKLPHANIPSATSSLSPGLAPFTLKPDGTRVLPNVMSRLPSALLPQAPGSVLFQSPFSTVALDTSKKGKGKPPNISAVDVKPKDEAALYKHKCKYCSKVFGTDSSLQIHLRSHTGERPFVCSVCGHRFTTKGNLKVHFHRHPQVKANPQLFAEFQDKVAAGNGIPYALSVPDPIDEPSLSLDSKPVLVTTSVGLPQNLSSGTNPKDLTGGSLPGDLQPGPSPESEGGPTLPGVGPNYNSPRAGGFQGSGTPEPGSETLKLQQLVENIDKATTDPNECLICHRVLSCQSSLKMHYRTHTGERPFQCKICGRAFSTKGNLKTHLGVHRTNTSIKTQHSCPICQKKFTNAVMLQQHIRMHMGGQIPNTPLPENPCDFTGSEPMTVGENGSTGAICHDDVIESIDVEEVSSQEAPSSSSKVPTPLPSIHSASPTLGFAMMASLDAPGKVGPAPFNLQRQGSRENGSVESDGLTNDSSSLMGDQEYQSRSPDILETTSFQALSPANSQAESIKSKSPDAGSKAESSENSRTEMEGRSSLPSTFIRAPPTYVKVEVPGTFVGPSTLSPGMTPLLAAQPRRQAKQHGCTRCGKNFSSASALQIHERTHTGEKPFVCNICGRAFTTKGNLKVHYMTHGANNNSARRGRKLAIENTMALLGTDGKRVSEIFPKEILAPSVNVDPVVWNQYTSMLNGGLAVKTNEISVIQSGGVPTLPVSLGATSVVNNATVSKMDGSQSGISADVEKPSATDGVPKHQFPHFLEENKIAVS
Technique: universal PBM
Molecule type: double-stranded DNA, one strand shown
Sample: in vitro
Tested at: 600 nM
Setting: 8-mer, flanks averaged, mean of replicates
Reading: higher = stronger binding
For `CGCCGCGA`, the E-score was -0.216.
`CGTGCACC` gave an E-score of -0.285.
The E-score of `AAAGCCGA` is reported as -0.23.
`AAATTCTT` gave an E-score of 0.191.
With `CAGTTATA` the E-score was 0.275.
`TAACGGTA` gave an E-score of 0.112.
`CCGCGCGG` gave an E-score of -0.294.
`AGGAAATC` gave an E-score of 0.053.
The E-score of `ACATACAC` is reported as 0.157.
`GGCGTCCC` gave an E-score of -0.353.
`AAAAAAGC` has an E-score of 0.198.
`GCCCTGTA` gave an E-score of -0.0675.
The E-score of `CGGCTTCC` is reported as -0.302.
The E-score of `ATTCAGCC` is reported as -0.0109.
For `AAATTAGA`, the E-score was 0.284.
The E-score of `ATTAGGTC` is reported as 0.226.
`GAAGTTGA` gave an E-score of -0.125.
`AATTGGGG` gave an E-score of -0.0818.
The E-score of `CCAGGCAG` is reported as -0.301.
`CTATAGAC` gave an E-score of 0.132.
With `AGTAATCC` the E-score was 0.1.
`AGAAGTCT` has an E-score of 0.02.
The E-score of `ATGCCCGG` is reported as -0.29.
`ACGATCGC` gave an E-score of -0.0646.
For `AGCAGTAT`, the E-score was 0.131.

Block 3
Target: Phosphate system positive regulatory protein PHO4, full length, GST-tagged (PHO4, Saccharomyces cerevisiae, UniProt P07270, residues 1-312)
Technique: competition protein-binding microarray
Molecule type: double-stranded DNA, one strand shown
Sample: in vitro
Tested at: 2 µM
Setting: whole 60-bp probe, lowest competitor level
Added: Cbf1 competitor, 0.05 µM
Reading: higher = stronger binding
Residues (chain): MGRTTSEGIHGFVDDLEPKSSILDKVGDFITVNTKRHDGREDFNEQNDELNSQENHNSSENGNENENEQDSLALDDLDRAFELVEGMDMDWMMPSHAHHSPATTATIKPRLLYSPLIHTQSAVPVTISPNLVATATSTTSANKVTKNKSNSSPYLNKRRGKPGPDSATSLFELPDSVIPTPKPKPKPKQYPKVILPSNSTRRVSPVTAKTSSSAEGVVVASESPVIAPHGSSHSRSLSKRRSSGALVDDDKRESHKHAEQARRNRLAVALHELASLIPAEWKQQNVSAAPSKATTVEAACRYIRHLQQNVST
The fluorescence intensity of `CTTCTGTAAATTTGATCAGTGGGTGGACGCGCCCCGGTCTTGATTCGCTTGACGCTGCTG` is reported as 3850 a.u.
The fluorescence intensity of `GGCCACCTTGATCTGCATGTTTCTTCTAGGTGAGCTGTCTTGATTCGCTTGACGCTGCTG` is reported as 5270 a.u.
For `CCGGTAAAAGCCGGGAACGTGCGGAACAATTTTTTTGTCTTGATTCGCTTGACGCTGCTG`, the fluorescence intensity was 16100 a.u.
For `GACACATTTGCCAAACACATGACAGAAGTGGCAATGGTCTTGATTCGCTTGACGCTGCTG`, the fluorescence intensity was 8630 a.u.
With `GTACGAAGCAGGCTGCACATGTGTGGGTTTACCTTCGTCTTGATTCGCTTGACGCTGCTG` the fluorescence intensity was 11200 a.u.
`CACTCGGCCATGAGGCACATGCAAACAAACGCTGCAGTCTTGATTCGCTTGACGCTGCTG` gave a fluorescence intensity of 11800 a.u.
The fluorescence intensity of `CATACCCAACCTTGATTTGTGGGTGAAGATATTTGTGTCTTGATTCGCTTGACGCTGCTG` is reported as 3620 a.u.
For `GGTGTCTCTGTCAGCCCCGTGGTCGCCAGCACAGAAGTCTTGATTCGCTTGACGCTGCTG`, the fluorescence intensity was 11000 a.u.
`TGCGCAACAACTTGCTACGTGGGTGTATGTCTAGAAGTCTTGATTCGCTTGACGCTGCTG` gave a fluorescence intensity of 7280 a.u.
`GTCTTGTCTCATTTTCACGTGCACTTCCCCACTTCAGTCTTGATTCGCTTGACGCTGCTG` has a fluorescence intensity of 13600 a.u.
With `TTATGTTCAACACGACATCCTAACAAATACTACAGCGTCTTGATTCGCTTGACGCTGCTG` the fluorescence intensity was 6380 a.u.
With `TCAACACTTCACCAACACGTGTCGGGGACCGCTTCAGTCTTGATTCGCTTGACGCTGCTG` the fluorescence intensity was 17300 a.u.
For `GAACCAGAGATGTTCCACGTGAAATATTACCAACCAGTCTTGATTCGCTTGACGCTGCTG`, the fluorescence intensity was 13600 a.u.
For `TGTAGAAGCAAAAAGCACGTCGCCTTGGCTGATGAGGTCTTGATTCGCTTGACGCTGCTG`, the fluorescence intensity was 7020 a.u.
With `TCAGCCTGCTGGATGCACGTGCGTCTCGGCGCCGCCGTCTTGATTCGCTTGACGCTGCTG` the fluorescence intensity was 15500 a.u.
The fluorescence intensity of `ATGGCTTTGGCTTTCCACATGGACATCAAGGTCTACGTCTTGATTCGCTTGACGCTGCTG` is reported as 6590 a.u.
`TCTCGTCTTGCTCTTCTTTTAAGAAATATTTGCCGCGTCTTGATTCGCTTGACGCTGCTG` gave a fluorescence intensity of 2820 a.u.
`AAAGCGGTAATTTGGCAGGTGGGTGCAGATATCTATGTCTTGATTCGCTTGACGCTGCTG` has a fluorescence intensity of 7470 a.u.
`AAAAATGGTGGAAAGTGCGTGCGGATTTCTCGAGCCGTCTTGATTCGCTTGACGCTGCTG` has a fluorescence intensity of 8730 a.u.

Mixed results
With `PhoQ, residues 284 288 289 292 302 303 SMMNNA` the fold induction was 14.2 (PhoP, residues 12 14 15 18 19 IQFRS (Escherichia coli, UniProt P23836); Sort-seq, refers to: YFP reporter; E. coli; PhoQ-PhoP variant library, added: 10 µM Mg2+; relative to: high Mg2+ state, higher = stronger signaling).

Excerpt of the above (block 1):
`A3Y`: “normalised enrichment score” 1.09.
Under “normalised enrichment score”, `N2K` is recorded as 1.3.
`S1N`: “normalised enrichment score” 1.34.
`R4V`: “normalised enrichment score” 1.23.
Under “normalised enrichment score”, `S12I` is recorded as 1.57.
`N8K`: “normalised enrichment score” 1.44.
